Assay results collected from several papers.
Each numbered part is a random draw from the data of one study; scales do not carry over between parts. Changes are numbered by the printed parent chain.
Sequence of UniProt O15294 (whole entry, looked up): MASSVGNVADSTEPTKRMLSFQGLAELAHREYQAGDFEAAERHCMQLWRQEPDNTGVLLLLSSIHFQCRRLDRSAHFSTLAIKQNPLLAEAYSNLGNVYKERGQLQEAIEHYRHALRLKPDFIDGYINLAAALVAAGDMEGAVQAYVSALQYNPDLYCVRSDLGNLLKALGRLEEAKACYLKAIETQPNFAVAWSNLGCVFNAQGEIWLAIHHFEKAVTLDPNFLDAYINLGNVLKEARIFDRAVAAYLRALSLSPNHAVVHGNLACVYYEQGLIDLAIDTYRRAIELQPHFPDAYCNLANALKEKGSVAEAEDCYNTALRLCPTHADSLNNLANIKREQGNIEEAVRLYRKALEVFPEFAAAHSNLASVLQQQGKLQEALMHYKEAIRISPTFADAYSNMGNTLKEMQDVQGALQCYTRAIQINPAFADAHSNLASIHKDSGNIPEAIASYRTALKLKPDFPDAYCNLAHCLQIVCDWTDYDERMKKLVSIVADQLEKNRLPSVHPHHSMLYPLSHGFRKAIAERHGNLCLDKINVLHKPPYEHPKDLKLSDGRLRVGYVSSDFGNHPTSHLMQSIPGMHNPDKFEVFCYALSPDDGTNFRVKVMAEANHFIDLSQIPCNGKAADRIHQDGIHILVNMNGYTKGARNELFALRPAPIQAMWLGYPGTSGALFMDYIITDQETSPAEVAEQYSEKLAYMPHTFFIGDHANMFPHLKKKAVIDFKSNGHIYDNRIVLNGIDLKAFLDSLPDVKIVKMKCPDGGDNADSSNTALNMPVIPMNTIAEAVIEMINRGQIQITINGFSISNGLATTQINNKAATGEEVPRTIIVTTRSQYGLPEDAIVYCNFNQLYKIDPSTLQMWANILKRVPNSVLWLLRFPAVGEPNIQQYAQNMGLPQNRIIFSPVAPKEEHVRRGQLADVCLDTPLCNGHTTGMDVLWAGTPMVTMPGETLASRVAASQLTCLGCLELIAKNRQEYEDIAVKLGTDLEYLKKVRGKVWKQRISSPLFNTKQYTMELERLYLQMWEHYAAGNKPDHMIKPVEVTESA

Block 1
Target: tungstate, free oxyanion
Technique: microfluidic competitive inhibition
Matrix: in vitro, cell-free expressed
Tested at: not given
Setting: derived from inhibition constants, unchanged parent 2230 nM
Direction: lower = stronger binding
Starting sequence: PafA, mature enzyme, eGFP fusion (Elizabethkingia meningoseptica, UniProt Q9KJX5); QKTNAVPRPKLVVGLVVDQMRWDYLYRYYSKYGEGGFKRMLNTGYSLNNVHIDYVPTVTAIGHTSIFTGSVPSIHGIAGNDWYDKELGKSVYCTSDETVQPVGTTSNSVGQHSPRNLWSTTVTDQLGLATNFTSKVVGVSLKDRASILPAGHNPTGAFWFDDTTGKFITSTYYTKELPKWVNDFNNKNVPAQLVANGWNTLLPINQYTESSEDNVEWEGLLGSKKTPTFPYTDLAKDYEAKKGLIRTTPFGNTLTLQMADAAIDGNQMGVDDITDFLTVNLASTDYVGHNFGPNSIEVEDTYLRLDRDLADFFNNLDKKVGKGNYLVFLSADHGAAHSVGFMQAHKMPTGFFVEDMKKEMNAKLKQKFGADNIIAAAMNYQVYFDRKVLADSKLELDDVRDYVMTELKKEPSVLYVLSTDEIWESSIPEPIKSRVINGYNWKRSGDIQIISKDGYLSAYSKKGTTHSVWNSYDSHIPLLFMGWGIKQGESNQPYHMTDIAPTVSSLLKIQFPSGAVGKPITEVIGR
Variant | oxyanion analog dissociation constant
W217V | 850 nM
V136G | 2310 nM
A331G | 5320 nM

Mixed results
Substance | target or system | assay | system | conditions | how to read | quantity | value
C[C@]12C=CC(=O)N[C@@H]1CC[C@@H]1[C@@H]2CC[C@]2(C)[C@@H](C(=O)Nc3cc(C(F)(F)F)ccc3C(F)(F)F)CC[C@@H]12 | HEK-293T | pseudovirus infection, FDA-approved drug library counter-screen | VSV pseudotyped with VSV-G | 10 µM, 16 h | reference: vehicle-treated | GFP-positive cells | 119%
PhoQ, residues 284 288 289 292 302 303 SLSLLA | PhoP, residues 12 14 15 18 19 AWHSL (Escherichia coli, UniProt P23836) | Sort-seq, refers to: YFP reporter | E. coli | PhoQ-PhoP variant library, together with: 10 µM Mg2+ | reference: high Mg2+ state, higher = stronger signaling | fold induction | 6.82
CCCNS(=O)(=O)Nc1ncnc(OCCOc2ncc(Br)cn2)c1-c1ccc(Br)cc1 | HEK-293T | pseudovirus infection, FDA-approved drug library counter-screen | VSV pseudotyped with VSV-G | 10 µM, 16 h | reference: vehicle-treated | GFP-positive cells | 95%
AHHSAWAPKYLINI | OGT (Homo sapiens, UniProt O15294) | binding, phage display NGS | peptide | concentration not given | reference: input library | enrichment fold change | 10.8
COC(=O)CCc1ccc(OCC(O)CNC(C)C)cc1 (centres unmarked) | HEK-293T | pseudovirus infection, FDA-approved drug library counter-screen | VSV pseudotyped with VSV-G | 10 µM, 16 h | reference: vehicle-treated | GFP-positive cells | 95.5%
